Results collected from several papers.
Each line is one published result; not all experiments were run side by side. Numbers after ± are the reported error.
F2: Prothrombin (F2, Homo sapiens, UniProt P00734)
4'-phosphopantetheinyl transferase PptT: 4'-phosphopantetheinyl transferase PptT (Mycobacterium tuberculosis, UniProt O33336)
Sequence of UniProt P21554 (whole entry, unmodified, looked up): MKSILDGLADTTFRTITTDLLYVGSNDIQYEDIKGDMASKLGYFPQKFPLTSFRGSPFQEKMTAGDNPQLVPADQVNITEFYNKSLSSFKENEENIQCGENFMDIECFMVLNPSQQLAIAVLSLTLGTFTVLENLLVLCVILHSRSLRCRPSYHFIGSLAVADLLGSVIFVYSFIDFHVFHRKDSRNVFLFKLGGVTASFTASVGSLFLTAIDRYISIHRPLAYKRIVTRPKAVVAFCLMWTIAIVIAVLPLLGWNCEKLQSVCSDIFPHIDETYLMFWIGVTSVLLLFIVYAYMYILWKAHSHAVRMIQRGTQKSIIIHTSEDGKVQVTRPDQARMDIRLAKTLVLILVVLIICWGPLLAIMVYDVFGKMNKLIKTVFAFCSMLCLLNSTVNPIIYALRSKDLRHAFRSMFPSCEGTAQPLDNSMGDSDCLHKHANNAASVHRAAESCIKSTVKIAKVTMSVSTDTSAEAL
Sequence of UniProt O33336 (whole entry, looked up): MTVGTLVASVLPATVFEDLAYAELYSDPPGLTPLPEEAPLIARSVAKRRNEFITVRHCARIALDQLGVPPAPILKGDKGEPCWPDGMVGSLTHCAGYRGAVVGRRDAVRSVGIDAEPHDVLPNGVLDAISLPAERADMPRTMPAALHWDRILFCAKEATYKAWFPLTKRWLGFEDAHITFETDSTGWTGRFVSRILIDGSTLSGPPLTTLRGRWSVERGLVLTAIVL
Sequence of UniProt P34972 (whole entry, looked up): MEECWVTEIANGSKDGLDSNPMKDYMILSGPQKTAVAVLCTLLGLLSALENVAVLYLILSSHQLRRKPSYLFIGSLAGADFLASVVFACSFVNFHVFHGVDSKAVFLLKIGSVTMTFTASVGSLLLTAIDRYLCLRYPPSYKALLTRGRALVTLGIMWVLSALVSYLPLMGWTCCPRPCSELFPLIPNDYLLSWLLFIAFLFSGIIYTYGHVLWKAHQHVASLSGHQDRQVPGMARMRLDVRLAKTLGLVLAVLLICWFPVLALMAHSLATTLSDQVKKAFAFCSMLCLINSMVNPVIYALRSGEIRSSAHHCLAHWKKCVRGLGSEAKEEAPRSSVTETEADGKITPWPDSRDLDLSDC
Sequence of UniProt P41143 (whole entry, looked up): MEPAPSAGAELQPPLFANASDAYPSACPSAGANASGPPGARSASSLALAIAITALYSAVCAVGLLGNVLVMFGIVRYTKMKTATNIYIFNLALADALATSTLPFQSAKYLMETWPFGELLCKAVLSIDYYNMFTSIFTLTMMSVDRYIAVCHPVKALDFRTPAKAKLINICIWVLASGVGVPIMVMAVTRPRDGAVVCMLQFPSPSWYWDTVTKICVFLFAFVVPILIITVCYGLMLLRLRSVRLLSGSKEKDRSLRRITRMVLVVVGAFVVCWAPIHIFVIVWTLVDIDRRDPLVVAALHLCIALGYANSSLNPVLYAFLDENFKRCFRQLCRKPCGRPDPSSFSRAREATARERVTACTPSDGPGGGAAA
Sequence of UniProt P25774 (whole entry, looked up): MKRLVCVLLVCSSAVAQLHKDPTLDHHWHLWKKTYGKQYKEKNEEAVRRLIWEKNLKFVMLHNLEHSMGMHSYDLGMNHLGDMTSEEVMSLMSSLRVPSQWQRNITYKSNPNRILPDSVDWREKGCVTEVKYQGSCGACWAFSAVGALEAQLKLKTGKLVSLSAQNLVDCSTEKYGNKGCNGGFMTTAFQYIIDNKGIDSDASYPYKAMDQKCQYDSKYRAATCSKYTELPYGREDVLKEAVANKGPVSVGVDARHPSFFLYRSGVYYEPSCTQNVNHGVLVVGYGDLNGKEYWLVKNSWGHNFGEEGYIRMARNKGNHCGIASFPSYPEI
Sequence of UniProt P9WPP7 (whole entry, looked up): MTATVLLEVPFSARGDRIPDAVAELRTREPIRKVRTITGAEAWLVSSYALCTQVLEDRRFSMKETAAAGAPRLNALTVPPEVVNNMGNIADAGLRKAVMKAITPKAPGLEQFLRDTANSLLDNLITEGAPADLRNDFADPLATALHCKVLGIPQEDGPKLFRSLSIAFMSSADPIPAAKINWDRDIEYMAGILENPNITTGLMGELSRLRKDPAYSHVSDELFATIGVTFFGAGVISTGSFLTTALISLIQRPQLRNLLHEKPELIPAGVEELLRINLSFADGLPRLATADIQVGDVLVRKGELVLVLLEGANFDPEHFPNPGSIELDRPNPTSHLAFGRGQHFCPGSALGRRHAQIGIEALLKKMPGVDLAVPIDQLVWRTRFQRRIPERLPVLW
Sequence of UniProt P16389 (whole entry, looked up): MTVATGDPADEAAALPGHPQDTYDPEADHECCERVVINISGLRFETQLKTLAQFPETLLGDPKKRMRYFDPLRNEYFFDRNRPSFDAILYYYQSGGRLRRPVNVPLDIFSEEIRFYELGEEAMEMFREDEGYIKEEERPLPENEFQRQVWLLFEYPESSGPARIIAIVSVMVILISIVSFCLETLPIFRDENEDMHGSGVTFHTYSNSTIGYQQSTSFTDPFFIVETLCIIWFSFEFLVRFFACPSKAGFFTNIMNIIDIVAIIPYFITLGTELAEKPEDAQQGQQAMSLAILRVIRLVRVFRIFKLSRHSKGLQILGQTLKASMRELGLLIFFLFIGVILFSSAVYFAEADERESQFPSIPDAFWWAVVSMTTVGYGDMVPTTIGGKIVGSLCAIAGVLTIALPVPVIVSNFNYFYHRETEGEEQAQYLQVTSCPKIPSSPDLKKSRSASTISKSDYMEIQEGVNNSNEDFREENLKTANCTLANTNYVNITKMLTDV
Sequence of UniProt P13945 (whole entry, looked up): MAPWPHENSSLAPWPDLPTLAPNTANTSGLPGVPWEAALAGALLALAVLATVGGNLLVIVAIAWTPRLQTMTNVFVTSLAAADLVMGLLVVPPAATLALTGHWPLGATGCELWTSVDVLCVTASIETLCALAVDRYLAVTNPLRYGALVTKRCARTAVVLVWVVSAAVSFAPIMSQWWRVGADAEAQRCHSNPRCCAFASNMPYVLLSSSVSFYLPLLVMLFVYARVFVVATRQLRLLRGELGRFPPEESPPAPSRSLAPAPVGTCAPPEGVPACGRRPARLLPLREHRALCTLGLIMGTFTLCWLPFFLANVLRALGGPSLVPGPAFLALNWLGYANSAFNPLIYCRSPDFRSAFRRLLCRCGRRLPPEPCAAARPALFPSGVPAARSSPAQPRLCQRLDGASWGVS

| Compound | target | assay | system | setting | measurement | value |
| --- | --- | --- | --- | --- | --- | --- |
| CC(C)[C@@H]1NC(=O)[C@H](C)NC(=O)[C@H](Cc2ccc(O)cc2)NC(=O)[C@H](CC(=O)O)NC(=O)[C@@H](NC(=O)[C@H](CCCCN)NC(=O)[C@H](CC(=O)O)NC(=O)[C@H](Cc2c[nH]cn2)NC(=O)[C@@H](NC(=O)[C@H](Cc2ccccc2)NC(=O)[C@@H](N)Cc2ccccc2)C(C)C)CCSSCC[C@@H](C(=O)N[C@@H](CCCCN)C(=O)NCC(=O)N[C@@H](CO)C(=O)N[C@@H](CCCCNC(=O)CCCC[C@@H]2SC[C@@H]3NC(=O)N[C@@H]32)C(N)=O)NC(=O)[C@H](CCC(N)=O)NC(=O)[C@H](Cc2c[nH]cn2)NC1=O | anti-HA antibody 12CA5 (mouse) | biolayer interferometry |  | 30 °C | Kd | 2.1 nM |
| CC(C)CC(C(=O)N1CC2(CC1C#N)C(=O)Nc1ccccc12)N(C)C(=O)c1cc2c(F)cc(F)c(F)c2[nH]1 (centres unmarked) | Cathepsin S (CTSS, Homo sapiens, UniProt P25774) | enzyme activity, inhibitor |  |  | IC50 | > 100000 nM |
| CC[C@H](C)[C@H](NC(=O)[C@@H]1CCCN1C(=O)[C@H](CCC(=O)O)NC(=O)[C@H](CCSC)NC(=O)CNC(=O)[C@H](CC(N)=O)NC(=O)CNC(=O)CNC(=O)[C@H](CCC(=O)O)NC(=O)CNC(=O)[C@H](CCCNC(=N)N)NC(=O)[C@H](CCC(N)=O)NC(=O)[C@H](Cc1ccc(O)cc1)NC(=O)[C@H](CC(C)C)NC(=O)[C@H](CCCCN)NC(=O)[C@@H]1CCCN1C(=O)[C@H](CCC(N)=O)NC(=O)[C@H](C)NC(=O)[C@@H](NC(=O)[C@H](CCC(=O)O)NC(=O)[C@H](C)NC(=O)[C@H](CCC(=O)O)NC(=O)[C@@H](NC(=O)[C@@H]1CCCN1C(=O)[C@@H](N)CCCCN)C(C)C)C(C)C)C(=O)N1CCC[C@H]1C(=O)N[C@@H](CCC(=O)O)C(=O)N[C@@H](CC(=O)O)C(=O)N[C@@H](Cc1ccc(OS(=O)(=O)O)cc1)C(=O)N[C@@H](CC(C)C)C(=O)N[C@@H](CC(=O)O)C(=O)N[C@@H](CC(=O)O)C(=O)N[C@@H](CCC(=O)O)C(=O)N[C@@H](CO)C(=O)O | F2 | enzyme activity, inhibitor, absorbance |  | pH 8 | Ki | 0.00632 nM |
| C#CCN(Cc1ccc2nc(C)[nH]c(=O)c2c1)c1ccc(C(=O)N[C@@H](CC(=O)NCC(=O)O)C(=O)O)cc1 | 4'-phosphopantetheinyl transferase PptT | enzyme activity, inhibitor, FP |  |  | IC50 | 59 nM |
| COc1ccccc1C(C[N+](=O)[O-])c1c(-c2ccccc2)[nH]c2ccccc12 (centres unmarked) | Cannabinoid receptor 1, with Gz (CNR1, Homo sapiens, UniProt P21554) | Gz dissociation, agonist, BRET | HEK293 |  | EC50 | 480 ± 70 nM |
| CC[C@H](C)[C@H](NC(=O)[C@@H]1CCCN1C(=O)[C@H](CCC(=O)O)NC(=O)[C@H](CCSC)NC(=O)CNC(=O)[C@H](CC(N)=O)NC(=O)CNC(=O)CNC(=O)[C@H](CCC(=O)O)NC(=O)CNC(=O)[C@H](CCCNC(=N)N)NC(=O)[C@H](CCC(N)=O)NC(=O)[C@H](Cc1ccc(O)cc1)NC(=O)[C@H](CC(C)C)NC(=O)[C@H](CCCCN)NC(=O)[C@@H]1CCCN1C(=O)[C@H](CCC(N)=O)NC(=O)[C@H](C)NC(=O)[C@@H](NC(=O)[C@H](CCC(=O)O)NC(=O)[C@H](C)NC(=O)[C@H](CCC(=O)O)NC(=O)[C@@H](NC(=O)[C@@H]1CCCN1C(=O)[C@@H](N)CCCCN)C(C)C)C(C)C)C(=O)N1CCC[C@H]1C(=O)N[C@@H](CCC(=O)O)C(=O)N[C@@H](CC(=O)O)C(=O)N[C@@H](Cc1ccc(OS(=O)(=O)O)cc1)C(=O)N[C@@H](CC(C)C)C(=O)N[C@@H](CCC(N)=O)C(=O)O | F2 | enzyme activity, inhibitor, absorbance |  | pH 8 | Ki | 0.00505 nM |
| CCCCCn1cc(C(=O)c2ccc3c(c2)CC(C)(C)C3)c2ccccc21 | CNR1 (Homo sapiens, UniProt P21554, H178A) | G protein activation, agonist, BRET |  |  | EC50 | 9550 nM |
| CCN(CC)C(=O)[C@@H]1C=C2c3cccc4c3c(cn4C(=O)c3ccco3)C[C@H]2N(C)C1 | ADRB3 (Homo sapiens, UniProt P13945) | ligand displacement, radioligand |  |  | Ki | > 10000 nM |
| C#CCN(Cc1ccc2nc(C)[nH]c(=O)c2c1)C(=O)NC(CSCC(N)=O)c1cccc([N+](=O)[O-])c1 (centres unmarked) | 4'-phosphopantetheinyl transferase PptT | enzyme activity, inhibitor, fluorescence polarization |  | enzyme 100 nM | IC50 | 1100 nM |
| CCCCCn1cc(C(=O)c2cccc3ccccc23)c2ccccc21 | CNR1 (Homo sapiens, UniProt P21554, F170A) | cAMP, agonist, BRET |  |  | EC50 | 398 nM |
| Cc1ccc2c(C(C[N+](=O)[O-])c3cccs3)c(-c3ccccc3)[nH]c2c1 (centres unmarked) | CNR1 (Homo sapiens, UniProt P21554, Y172A) | G protein activation, agonist, BRET |  |  | EC50 | 180 nM |
| CCN(CC)C(=O)c1ccc(C(c2cccc(O)c2)N2CC(C)N(Cc3ccccc3)CC2C)cc1 (centres unmarked) | OPRD1 (Homo sapiens, UniProt P41143) | β-arrestin recruitment, agonist |  |  | EC50 | 7.9 nM |
| C#CCN(Cc1ccc2nc(C)[nH]c(=O)c2c1)c1ccc(C(=O)NC(CCCC(=O)O)C(=O)O)cc1 (centres unmarked) | 4'-phosphopantetheinyl transferase PptT | enzyme activity, inhibitor, FP |  |  | IC50 | 53 nM |
| CCCCCn1cc(C(=O)c2cccc3c2CC(C)(C)C3)c2ccccc21 | CNR2 (Homo sapiens, UniProt P34972) | cAMP, agonist |  |  | EC50 | 1.58 nM |
| C=CCN(Cc1ccc2nc(C)[nH]c(=O)c2c1)c1ccc(C(=O)N[C@H](CCC(=O)O)C(=O)O)s1 | 4'-phosphopantetheinyl transferase PptT | enzyme activity, inhibitor, FP |  |  | IC50 | 18 nM |
| C(=C\c1ccc(-c2ccccc2)cc1)/Cn1ccnc1 | cyp121 (Mycobacterium tuberculosis, UniProt P9WPP7) | substrate depletion, inhibitor, LC-MS/MS |  | added: cYY 20 µM | IC50 | 21000 nM |
| Cc1nc2ccc(CN(C)c3ccc(C(=O)NC(CCC(=O)O)C(=O)O)cc3)cc2c(=O)[nH]1 (centres unmarked) | 4'-phosphopantetheinyl transferase PptT | enzyme activity, inhibitor, FP |  |  | IC50 | 72 nM |
| CC[C@H](C)[C@@H]1NC(=O)[C@@H](NC(=O)CNC(=O)[C@@H](N)CCCCN)CSSC[C@@H]2NC(=O)[C@@H]3CSSC[C@H](NC(=O)[C@H](CCC(N)=O)NC(=O)[C@H](CC(C)C)NC(=O)[C@@H]4CCCN4C(=O)[C@H](CCCNC(=N)N)NC2=O)C(=O)N[C@@H](CCCCN)C(=O)NCC(=O)N2CCC[C@H]2C(=O)N[C@@H](CO)C(=O)N2CCC[C@H]2C(=O)N[C@@H](CCCCN)C(=O)N[C@@H](CCC(N)=O)C(=O)N[C@@H](CCCCN)C(=O)N[C@@H](CCCCN)C(=O)N[C@H](C(=O)N[C@H](C(=O)N[C@@H](CCCCN)C(=O)N[C@H](C(=O)O)C(C)C)[C@@H](C)O)CSSC[C@H](NC(=O)[C@H](Cc2c[nH]c4ccccc24)NC(=O)[C@H](CCCCN)NC(=O)CNC(=O)[C@H](CCC(=O)O)NC(=O)[C@H](CCCCN)NC1=O)C(=O)N1CCC[C@H]1C(=O)N[C@@H](CCCCN)C(=O)N[C@@H]([C@@H](C)O)C(=O)N[C@@H](C)C(=O)N1CCC[C@H]1C(=O)N3 | KCNA2 (Homo sapiens, UniProt P16389) | ion current, inhibitor, patch clamp |  | pH 7.4 | IC50 | 171 nM |
| Cc1nc(=O)c2cc(CN(C)c3ccc(C(=O)NCc4cccc(C(=O)O)c4)s3)ccc2[nH]1 | 4'-phosphopantetheinyl transferase PptT | enzyme activity, inhibitor, fluorescence polarization |  | enzyme 100 nM | IC50 | 332 nM |
| O=[N+]([O-])CC(c1ccco1)c1c(-c2ccccc2)[nH]c2ccccc12 (centres unmarked) | CNR1 (Homo sapiens, UniProt P21554, I245L) | G protein activation, agonist, BRET |  |  | EC50 | 490 nM |

For quick reference, copied from above:
| Compound | target | assay | system | setting | measurement | value |
| --- | --- | --- | --- | --- | --- | --- |
| CC[C@H](C)[C@H](NC(=O)[C@@H]1CCCN1C(=O)[C@H](CCC(=O)O)NC(=O)[C@H](CCSC)NC(=O)CNC(=O)[C@H](CC(N)=O)NC(=O)CNC(=O)CNC(=O)[C@H](CCC(=O)O)NC(=O)CNC(=O)[C@H](CCCNC(=N)N)NC(=O)[C@H](CCC(N)=O)NC(=O)[C@H](Cc1ccc(O)cc1)NC(=O)[C@H](CC(C)C)NC(=O)[C@H](CCCCN)NC(=O)[C@@H]1CCCN1C(=O)[C@H](CCC(N)=O)NC(=O)[C@H](C)NC(=O)[C@@H](NC(=O)[C@H](CCC(=O)O)NC(=O)[C@H](C)NC(=O)[C@H](CCC(=O)O)NC(=O)[C@@H](NC(=O)[C@@H]1CCCN1C(=O)[C@@H](N)CCCCN)C(C)C)C(C)C)C(=O)N1CCC[C@H]1C(=O)N[C@@H](CCC(=O)O)C(=O)N[C@@H](CC(=O)O)C(=O)N[C@@H](Cc1ccc(OS(=O)(=O)O)cc1)C(=O)N[C@@H](CC(C)C)C(=O)N[C@@H](CCC(N)=O)C(=O)O | F2 | enzyme activity, inhibitor, absorbance |  | pH 8 | Ki | 0.00505 nM |
| Cc1nc(=O)c2cc(CN(C)c3ccc(C(=O)NCc4cccc(C(=O)O)c4)s3)ccc2[nH]1 | 4'-phosphopantetheinyl transferase PptT | enzyme activity, inhibitor, fluorescence polarization |  | enzyme 100 nM | IC50 | 332 nM |
